Measured values gathered from unrelated publications.
Lines come from different studies, so protocols differ. Numbers after ± are the reported error. ≈ marks a conversion by molar mass, not a printed value.

With COc1c(C)c2c(c(O)c1C/C=C(\C)CCC(=O)O)C(=O)OC2 the trough concentration was 3690 ± 2020 ng/mL (stable kidney transplant recipients, plasma; oral, dose not given, 12 h post-dose, steady state, with: tacrolimus).
With COc1cc(Nc2ncc3c(n2)-c2ccc(Cl)cc2C(c2c(F)cccc2OC)=NC3)ccc1C(=O)O the trough concentration was 2250 ± 1530 nM (children, UGT1A1 intermediate or poor metabolizers, no grade ≥2 toxicity, plasma; oral, 80 mg/m2, day 4).
CCCCCCCCCCCCCNCC(=O)N(CC(=O)N(CCCCN)CC(=O)N(CCN)CC(=O)N(CC(N)=O)Cc1ccccc1)Cc1ccccc1 — result for “acetonitrile at elution”: 66.9% (preparative RP-HPLC C18; water to acetonitrile gradient; 0.05% TFA in eluent; higher = more hydrophobic).
Under “elimination rate constant”, COc1cccc(N2CCN(C3=Nc4c(F)cccc4[C@H](CC(=O)O)N3c3cc(C(F)(F)F)ccc3OC)CC2)c1 is recorded as 1.74e-05 ± 5.38e-06 s⁻¹ (UHPLC-MS/MS; healthy women, plasma; intravenous infusion, 120 mg single dose, 30 min infusion, HPβCD formulation).
COc1cc(OC)c(/C=C/S(=O)(=O)Cc2ccc(OC)c(NCC(=O)O)c2)c(OC)c1 gave a Tmax of 1.13 ± 0.25 h (cancer patients, phase I, plasma; oral, 140 mg twice daily, day 1 cycle 1).
The MRT(0-t) of O=C(/C=C/c1ccc(O)c(O)c1/C=C/c1ccc(O)c(O)c1)O[C@H](Cc1ccc(O)c(O)c1)C(=O)O is reported as 7.7 ± 3.21 h (UPLC-MS/MS; Wistar rat, microcirculation dysfunction model, plasma; oral, 100 mg/kg Salvia miltiorrhiza stem-leaf extract FT).
For CC(=O)Nc1ccc(O[C@@H]2O[C@H](C(=O)O)[C@@H](O)[C@H](O)[C@H]2O)cc1, the AUC(0-12 h) was 89500 ng·h/mL (healthy volunteers, both sexes, plasma; oral, dose not given, day 2, with: favipiravir, acute).
With C[C@@H](c1ncncc1F)[C@](O)(Cn1cncn1)c1ccc(F)cc1F the trough concentration was 1130 ng/mL (patients, hematological disorders, CYP2C19 NM without PPI, plasma; 200 mg, 12 h, steady state, median, combined score 2).
CCc1nc(C(N)=O)c(Nc2ccc(N3CCC(N4CCN(C)CC4)CC3)c(OC)c2)nc1NC1CCOCC1 gave an AUC(0-72h) of 865 ng·h/mL (healthy humans, fasted, plasma; oral, 40 mg, single dose).
With C=CC(=O)Nc1cc(Nc2ncc(C(=O)OC(C)C)c(-c3cn(C)c4ccccc34)n2)c(OC)cc1N(C)CCN(C)C the AUC(0-inf) was 456 ng·h/mL (human, fasted; oral, 120 mg single dose, geometric mean).
With Nc1ccc(-c2nc(-c3ccc(Oc4ccc(C(F)(F)F)cc4)cc3)no2)cc1 the bioavailability was 100% (female CD-1 mouse, plasma; oral, 50 mg/kg).
Cc1cc(Nc2ccc(C)c(Cl)c2)n2nc(C(F)(F)F)nc2n1 has a maximum solubility of 100 µM (0.1 M sodium acetate with 0.01% Triton X-100; pH 5.5).
CCN1C(=O)CNc2ncc(-c3ccc(-c4nc[nH]n4)nc3C)nc21 has an AUC(0-12h) of 680 ng·h/mL (human, plasma; oral, 15 mg twice daily, first dose).
The AUC(0-t) of CCCOc1ccc([C@H]2CNC(=O)N2c2ccc3[nH]cnc3c2)cc1 is reported as 17900 ng·h/mL (human, plasma; oral, 1200 mg, single dose, fed, healthy volunteers).
[2H]C([2H])([2H])Oc1cc2c(cc1OC([2H])([2H])[2H])C1CC(=O)C(CC(C)C)CN1CC2 (stereo not shown) has a dose-normalized Cmax of 2.5 ng/mL (refers to: deuterated total (α+β)-HTBZ; healthy human volunteers, plasma; oral, 24 mg single dose, standard meal).
Cc1nc2cccc(OCC(C)(C)C(=O)NC(C)C)c2c(N)c1C(=O)O has an AUC(0-24 h) of 915 ng·h/mL (male Sprague-Dawley rat, plasma; oral food admix, 100 mg/kg/day, day 7, 90-day dietary study).
Under “amount excreted in urine”, CN(C)C(=O)c1cc2cnc(Nc3ccc(N4CCNCC4)cn3)nc2n1C1CCCC1 is recorded as 19.3 mg (human, moderate renal impairment; oral, 400 mg, 0 to 144 h, geometric mean).
The parent remaining of CN[C@@H]1[C@H](O)[C@H](NC)[C@H]2O[C@]3(O)[C@H](O[C@@H]2[C@H]1O)O[C@H](C)C[C@H]3NC(=O)Cc1ccc(O)cn1 is reported as 99.9% (glutathione conjugation; human liver S9; 100 µM, 2 h, pH 7.4, with: glutathione 0.2 mM).
C[N+]1(CC(=O)OC2CCCCCCC2)CCCCC1.[I-] has an aqueous solubility of 182 µM (phosphate buffer with 2% DMSO; 90 min, pH 7.4, theoretical maximum 200 µM).
With CN[C@@H]1[C@H](O)[C@H](NC)[C@H]2O[C@]3(O)[C@H](O[C@@H]2[C@H]1O)O[C@H](C)C[C@H]3NC(=O)Cc1ccc(Cl)cn1 the parent remaining was 99.9% (glutathione conjugation; human liver S9; 100 µM, 2 h, pH 7.4, with: glutathione 0.2 mM).
With C=CC(=O)Nc1cc(Nc2nccc(-c3cn(C)c4ccccc34)n2)c(OC)cc1N(C)CCN(C)C the MRT(0-inf) was 11.7 ± 1.13 h (Sprague-Dawley rat, male, plasma; oral, 10 mg/kg, with: avitinib 30 mg/kg daily for 7 days).
For CC(=O)c1nn(CC(=O)N2C[C@H](F)C[C@H]2C(=O)Nc2cccc(Br)n2)c2ccc(-c3cnc(C)nc3)cc12, “sustained exposure duration” read 240 h (Dutch Belted rabbits, choroid/RPE and retina; oral, 7.5 to 50 mg/kg twice daily, 15 days).
With COc1cccc2c1C(=O)c1c(O)c3c(c(O)c1C2=O)C[C@@](O)(C(=O)CO)C[C@@H]3O[C@H]1C[C@H](N)[C@H](O)[C@H](C)O1 the AUC was 1930 µM·h (mouse, E0771 tumour-bearing, heart; intravenous, 92 µmol/kg).
The plasma concentration of Cc1c2c(n(-c3ccc(Cl)cc3Cl)c1-c1ccc(OS(=O)(=O)CCC(F)(F)F)cc1)CCN(N1CCCCC1)C2=O is reported as 50 nM (cynomolgus monkey 1, plasma; intravenous infusion, 0.2 mg/kg, 90 min, PET study midpoint).
For COc1cccc(-c2ccc(NC(=O)C3=C(C(=O)O)CCC3)c(F)c2)c1, the AUC(0-t) was 304000 ng·h/mL (human, male, plasma; oral, 50 mg once daily, day 13, geometric mean, pre-dosed).
The AUC(0-tlast) of COc1c(OCCCN2CCOCC2)ccc2c1N=C(NC(=O)c1cnc(N)nc1)N1CCN=C21 is reported as 2920 ng·h/mL (human, solid tumours, plasma; intravenous, 0.8 mg/kg, cycle 1 day 1).
Under “median serum concentration”, C[C@]12CC[C@@H]3c4ccc(O)cc4CC[C@H]3[C@@H]1C[C@@H](O)[C@@H]2O is recorded as 0.0696 ng/mL (GC-MS; breast cancer women on NSAI, serum; vaginal, 0.03 mg, 2 h, day 0).
The Cmin of O=C(c1cc(Cc2n[nH]c(=O)c3ccccc23)ccc1F)N1CCN(C(=O)C2CC2)CC1 is reported as 3600 ± 2200 ng/mL (cancer patients; oral, 400 mg twice daily, day 8, with: pegylated liposomal doxorubicin).
The Vd/F of CCCC[C@H](NC(C)=O)C(=O)N[C@H]1CCC(=O)NC[C@@H](C(=O)N[C@@H](Cc2c[nH]c3ccccc23)C(N)=O)NC(=O)[C@H](CCCNC(=N)N)NC(=O)[C@@H](Cc2ccccc2)NC(=O)[C@H](Cc2c[nH]cn2)NC1=O is reported as 1 L/kg (male rat, plasma; subcutaneous, 1 mg/kg/day, multiple doses, once daily).
Cc1cc(-c2cc(OC(=O)c3ccccc3)ccc2Cl)cc2nnc(Nc3ccc(OCCN4CCCC4)cc3)nc12 gave an AUC(0-24 h) of 2.21 µM·h (Long Evans rat, retina; topical, 1%).
For C[C@H](O)[C@@H](NC(=O)[C@@H](Cc1c[nH]c2ccccc12)NC(=O)[C@@H](CCC(=O)O)NC(=O)CNC(=O)[C@@H](CCCCN)NC(=O)[C@H](N)Cc1c[nH]c2ccccc12)C(=O)NCC(=O)N[C@H](CCCNC(=N)N)C(=O)NCCC(=O)NCCCC[C@H](NC(=O)CCNC(=O)[C@@H](CCCNC(=N)N)NC(=O)CNC(=O)[C@H](NC(=O)[C@@H](Cc1c[nH]c2ccccc12)NC(=O)[C@@H](CCC(=O)O)NC(=O)CNC(=O)[C@@H](CCCCN)NC(=O)[C@H](N)Cc1c[nH]c2ccccc12)[C@H](C)O)C(=O)NCCCC[C@H](NC(=O)[C@H](CCCCNC(=O)CCNC(=O)[C@@H](CCCNC(=N)N)NC(=O)CNC(=O)[C@H](NC(=O)[C@@H](Cc1c[nH]c2ccccc12)NC(=O)[C@@H](CCC(=O)O)NC(=O)CNC(=O)[C@@H](CCCCN)NC(=O)[C@H](N)Cc1c[nH]c2ccccc12)[C@H](C)O)NC(=O)CCNC(=O)[C@@H](CCCNC(=N)N)NC(=O)CNC(=O)[C@H](NC(=O)[C@@H](Cc1c[nH]c2ccccc12)NC(=O)[C@@H](CCC(=O)O)NC(=O)CNC(=O)[C@@H](CCCCN)NC(=O)[C@H](N)Cc1c[nH]c2ccccc12)[C@H](C)O)C(=O)N[C@@H](CS)C(=O)O, “time detected in plasma” read 4 h (ELISA; BALB/c mouse, plasma; sc, 200 µg).
For CN[C@H](CC(C)C)C(=O)N[C@H]1C(=O)N[C@@H](CC(N)=O)C(=O)N[C@H]2C(=O)N[C@H]3C(=O)N[C@H](C(=O)N[C@H](C(=O)O)c4cc(O)cc(O)c4-c4cc3ccc4O)[C@H](O)c3ccc(c(Cl)c3)Oc3cc2cc(c3O[C@@H]2O[C@H](CO)[C@@H](O)[C@H](O)[C@H]2O[C@H]2C[C@](C)(N)[C@H](O)[C@H](C)O2)Oc2ccc(cc2Cl)[C@H]1O, the HC50 was > 1410 µM (hemolysis; human red blood cells; 60 min, 37 °C, i=1.0,405,50).
CC1(C)S[C@@H]2[C@H](NC(=O)[C@H](N)c3ccc(O)cc3)C(=O)N2[C@H]1C(=O)O has an AUC of 3420 ng·h/mL (male ICR mouse, plasma; oral, 3 mg/kg, 24 h).
For CCCCCCCCCCCCCCCCCCOP(=O)([O-])OC1CC[N+](C)(C)CC1, the terminal half-life was > 240 h (rhesus monkey, male, cerebrospinal fluid; oral, 7 mg/kg, single dose).
C[C@@H](Oc1ccc(S(C)(=O)=O)cc1C(=O)N1C[C@@H]2C[C@]2(c2cc(C(F)(F)F)on2)C1)C(F)(F)F has a trough concentration of 21.7 nM (human male, CSF; oral, 25 mg once daily, 312 h).
For Cn1c(-c2ccc(C(N)=O)cc2F)nnc1C(C)(C)Oc1c(F)cc(Cl)cc1F, the half-life mean was 18.9 h (young Japanese adults, plasma; oral, 10 mg single dose, day 1, high-dose multiple-dose study).
O=C1Nc2ccccc2C(=O)CCc2ccccc21 gave a kinetic solubility of 50 to 100 µg/mL (≈ 199 to 398 µM) (nephelometry; aqueous buffer; 30 min, pH 6.5).
For CC[C@H](C)[C@H](NC(=O)[C@H](Cc1ccccc1)NC(=O)[C@H](CCC(=O)O)NC(=O)[C@H](CCCCNC(=O)COCCOCCNC(=O)COCCOCCNC(=O)CC[C@H](NC(=O)CCCCCCCCCCCCCCCCC(=O)O)C(=O)O)NC(=O)[C@H](C)NC(=O)[C@H](C)NC(=O)[C@H](CCC(N)=O)NC(=O)CNC(=O)[C@H](CCC(=O)O)NC(=O)[C@H](CC(C)C)NC(=O)[C@H](Cc1ccc(O)cc1)NC(=O)[C@H](CO)NC(=O)[C@H](CO)NC(=O)[C@@H](NC(=O)[C@H](CC(=O)O)NC(=O)[C@H](CO)NC(=O)[C@@H](NC(=O)[C@H](Cc1ccccc1)NC(=O)[C@@H](NC(=O)CNC(=O)[C@H](CCC(=O)O)NC(=O)C(C)(C)NC(=O)[C@@H](N)Cc1cnc[nH]1)[C@@H](C)O)[C@@H](C)O)C(C)C)C(=O)N[C@@H](C)C(=O)N[C@@H](Cc1c[nH]c2ccccc12)C(=O)N[C@@H](CC(C)C)C(=O)N[C@H](C(=O)N[C@@H](CCCNC(=N)N)C(=O)NCC(=O)N[C@@H](CCCNC(=N)N)C(=O)NCC(=O)O)C(C)C, “tmax at steady state” read 30 h (Caucasian subjects; subcutaneous once weekly, 1.0 mg, median).
C=CC(=C)CC[C@]1(C)[C@H](C)C[C@H](OC)[C@@]23C(=C[C@H](OC(=O)[C@@H](C)CC)C[C@@H]12)[C@@H](OC(C)=O)O[C@H]3OC(C)=O gave a haemolysis of 17% (haemolysis; 500 µM).
Cc1ccc(C2Nc3ccccc3-n3c(-c4ccccc4)c4c(=O)n(C)c(=O)n(C)c4c32)o1 (stereo not shown) — result for compound level: “not detected” (LC-MS; mouse, serum, kidney and urine; intravenous bolus, 300 µg, 30 to 60 min, detection limit below 100 nM).

A few entries again:
Under “amount excreted in urine”, CN(C)C(=O)c1cc2cnc(Nc3ccc(N4CCNCC4)cn3)nc2n1C1CCCC1 is recorded as 19.3 mg (human, moderate renal impairment; oral, 400 mg, 0 to 144 h, geometric mean).
The parent remaining of CN[C@@H]1[C@H](O)[C@H](NC)[C@H]2O[C@]3(O)[C@H](O[C@@H]2[C@H]1O)O[C@H](C)C[C@H]3NC(=O)Cc1ccc(O)cn1 is reported as 99.9% (glutathione conjugation; human liver S9; 100 µM, 2 h, pH 7.4, with: glutathione 0.2 mM).
C[N+]1(CC(=O)OC2CCCCCCC2)CCCCC1.[I-] has an aqueous solubility of 182 µM (phosphate buffer with 2% DMSO; 90 min, pH 7.4, theoretical maximum 200 µM).
With CN[C@@H]1[C@H](O)[C@H](NC)[C@H]2O[C@]3(O)[C@H](O[C@@H]2[C@H]1O)O[C@H](C)C[C@H]3NC(=O)Cc1ccc(Cl)cn1 the parent remaining was 99.9% (glutathione conjugation; human liver S9; 100 µM, 2 h, pH 7.4, with: glutathione 0.2 mM).
With C=CC(=O)Nc1cc(Nc2nccc(-c3cn(C)c4ccccc34)n2)c(OC)cc1N(C)CCN(C)C the MRT(0-inf) was 11.7 ± 1.13 h (Sprague-Dawley rat, male, plasma; oral, 10 mg/kg, with: avitinib 30 mg/kg daily for 7 days).
For CC(=O)c1nn(CC(=O)N2C[C@H](F)C[C@H]2C(=O)Nc2cccc(Br)n2)c2ccc(-c3cnc(C)nc3)cc12, “sustained exposure duration” read 240 h (Dutch Belted rabbits, choroid/RPE and retina; oral, 7.5 to 50 mg/kg twice daily, 15 days).
